{"data": "Assay results pooled from the literature", "Sodium- and chloride-dependent glycine transporter 2": "Sodium- and chloride-dependent glycine transporter 2 (Homo sapiens, UniProt Q9Y345)", "Gria1/Gria2": "Glutamate receptor AMPA 1/2 (Gria1/Gria2, Rattus norvegicus, UniProt P19490+P19491)", "note": "“And” joins repeats or separate records; there may be more than shown. Numbers after ± are the reported error.", "sequence of UniProt Q7Z5P4 (whole entry, looked up)": "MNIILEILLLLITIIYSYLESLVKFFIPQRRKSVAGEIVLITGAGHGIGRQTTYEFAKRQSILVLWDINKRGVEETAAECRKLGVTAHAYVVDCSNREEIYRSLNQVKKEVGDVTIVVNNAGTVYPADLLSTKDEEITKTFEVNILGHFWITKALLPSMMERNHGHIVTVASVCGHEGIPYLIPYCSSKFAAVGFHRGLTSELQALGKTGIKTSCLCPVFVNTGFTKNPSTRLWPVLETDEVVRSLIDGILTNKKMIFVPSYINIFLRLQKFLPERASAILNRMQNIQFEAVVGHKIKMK", "sequence of UniProt P25999 (whole entry, looked up)": "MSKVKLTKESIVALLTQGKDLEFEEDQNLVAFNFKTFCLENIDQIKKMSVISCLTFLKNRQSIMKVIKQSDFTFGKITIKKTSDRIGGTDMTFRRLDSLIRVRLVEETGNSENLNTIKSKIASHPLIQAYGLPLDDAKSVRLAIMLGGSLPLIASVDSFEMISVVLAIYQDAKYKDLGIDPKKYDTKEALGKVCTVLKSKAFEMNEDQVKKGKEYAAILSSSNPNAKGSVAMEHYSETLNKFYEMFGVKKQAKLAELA", "sequence of UniProt P46089 (whole entry, looked up)": "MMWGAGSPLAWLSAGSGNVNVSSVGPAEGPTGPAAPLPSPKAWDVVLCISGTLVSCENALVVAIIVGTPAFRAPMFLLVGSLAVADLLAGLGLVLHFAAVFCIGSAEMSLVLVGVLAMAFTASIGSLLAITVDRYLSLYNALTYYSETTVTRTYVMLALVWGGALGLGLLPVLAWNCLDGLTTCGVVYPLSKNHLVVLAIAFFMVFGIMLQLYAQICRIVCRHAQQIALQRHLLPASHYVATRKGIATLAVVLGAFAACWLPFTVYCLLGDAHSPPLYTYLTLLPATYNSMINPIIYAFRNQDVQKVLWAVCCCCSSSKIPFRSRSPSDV", "sequence of UniProt O00206 (whole entry, looked up)": "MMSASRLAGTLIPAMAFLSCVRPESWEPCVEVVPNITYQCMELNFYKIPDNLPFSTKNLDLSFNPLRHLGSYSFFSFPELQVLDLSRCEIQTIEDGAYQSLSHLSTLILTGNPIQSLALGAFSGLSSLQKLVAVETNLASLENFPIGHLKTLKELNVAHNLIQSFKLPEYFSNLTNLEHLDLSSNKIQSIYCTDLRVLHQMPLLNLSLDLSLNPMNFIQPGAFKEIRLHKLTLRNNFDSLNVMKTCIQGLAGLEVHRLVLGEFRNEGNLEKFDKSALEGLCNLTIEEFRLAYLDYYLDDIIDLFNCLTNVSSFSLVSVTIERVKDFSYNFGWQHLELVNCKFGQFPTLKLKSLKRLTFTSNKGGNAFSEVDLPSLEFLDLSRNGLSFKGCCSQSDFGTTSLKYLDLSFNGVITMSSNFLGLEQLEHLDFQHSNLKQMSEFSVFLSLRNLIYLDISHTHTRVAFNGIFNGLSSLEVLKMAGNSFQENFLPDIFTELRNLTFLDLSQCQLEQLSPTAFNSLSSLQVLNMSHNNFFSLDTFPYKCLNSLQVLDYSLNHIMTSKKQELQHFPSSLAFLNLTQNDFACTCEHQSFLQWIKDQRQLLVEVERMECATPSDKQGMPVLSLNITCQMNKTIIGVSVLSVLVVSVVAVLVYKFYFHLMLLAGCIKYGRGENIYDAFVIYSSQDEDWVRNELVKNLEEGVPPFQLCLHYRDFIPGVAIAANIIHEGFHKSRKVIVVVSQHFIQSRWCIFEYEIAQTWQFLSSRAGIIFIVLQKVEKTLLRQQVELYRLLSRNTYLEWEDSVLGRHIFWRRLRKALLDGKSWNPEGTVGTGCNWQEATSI", "sequence of UniProt P19491 (whole entry, looked up)": "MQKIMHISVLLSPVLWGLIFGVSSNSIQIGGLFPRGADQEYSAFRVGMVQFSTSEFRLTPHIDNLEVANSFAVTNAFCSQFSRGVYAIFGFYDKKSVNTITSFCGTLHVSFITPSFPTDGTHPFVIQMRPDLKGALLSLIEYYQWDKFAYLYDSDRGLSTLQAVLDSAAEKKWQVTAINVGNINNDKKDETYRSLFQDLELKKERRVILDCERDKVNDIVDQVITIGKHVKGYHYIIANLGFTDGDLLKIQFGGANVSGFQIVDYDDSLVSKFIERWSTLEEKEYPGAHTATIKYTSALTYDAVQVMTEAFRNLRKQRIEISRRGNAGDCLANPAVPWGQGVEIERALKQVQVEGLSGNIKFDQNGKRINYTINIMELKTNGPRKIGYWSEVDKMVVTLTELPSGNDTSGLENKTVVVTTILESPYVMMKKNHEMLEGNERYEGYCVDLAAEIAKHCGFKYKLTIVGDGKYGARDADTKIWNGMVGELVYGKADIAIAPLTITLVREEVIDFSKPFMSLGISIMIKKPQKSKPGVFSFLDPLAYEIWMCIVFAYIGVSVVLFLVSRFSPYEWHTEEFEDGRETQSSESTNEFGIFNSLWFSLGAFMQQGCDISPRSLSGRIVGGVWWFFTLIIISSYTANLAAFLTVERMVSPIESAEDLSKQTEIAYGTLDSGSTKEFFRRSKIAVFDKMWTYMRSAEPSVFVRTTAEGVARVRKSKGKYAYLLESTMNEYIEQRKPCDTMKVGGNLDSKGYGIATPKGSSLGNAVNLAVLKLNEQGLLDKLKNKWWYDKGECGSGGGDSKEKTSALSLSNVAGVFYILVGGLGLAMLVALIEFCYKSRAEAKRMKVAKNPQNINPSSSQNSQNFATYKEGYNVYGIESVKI", "sequence of UniProt P19490 (whole entry, looked up)": "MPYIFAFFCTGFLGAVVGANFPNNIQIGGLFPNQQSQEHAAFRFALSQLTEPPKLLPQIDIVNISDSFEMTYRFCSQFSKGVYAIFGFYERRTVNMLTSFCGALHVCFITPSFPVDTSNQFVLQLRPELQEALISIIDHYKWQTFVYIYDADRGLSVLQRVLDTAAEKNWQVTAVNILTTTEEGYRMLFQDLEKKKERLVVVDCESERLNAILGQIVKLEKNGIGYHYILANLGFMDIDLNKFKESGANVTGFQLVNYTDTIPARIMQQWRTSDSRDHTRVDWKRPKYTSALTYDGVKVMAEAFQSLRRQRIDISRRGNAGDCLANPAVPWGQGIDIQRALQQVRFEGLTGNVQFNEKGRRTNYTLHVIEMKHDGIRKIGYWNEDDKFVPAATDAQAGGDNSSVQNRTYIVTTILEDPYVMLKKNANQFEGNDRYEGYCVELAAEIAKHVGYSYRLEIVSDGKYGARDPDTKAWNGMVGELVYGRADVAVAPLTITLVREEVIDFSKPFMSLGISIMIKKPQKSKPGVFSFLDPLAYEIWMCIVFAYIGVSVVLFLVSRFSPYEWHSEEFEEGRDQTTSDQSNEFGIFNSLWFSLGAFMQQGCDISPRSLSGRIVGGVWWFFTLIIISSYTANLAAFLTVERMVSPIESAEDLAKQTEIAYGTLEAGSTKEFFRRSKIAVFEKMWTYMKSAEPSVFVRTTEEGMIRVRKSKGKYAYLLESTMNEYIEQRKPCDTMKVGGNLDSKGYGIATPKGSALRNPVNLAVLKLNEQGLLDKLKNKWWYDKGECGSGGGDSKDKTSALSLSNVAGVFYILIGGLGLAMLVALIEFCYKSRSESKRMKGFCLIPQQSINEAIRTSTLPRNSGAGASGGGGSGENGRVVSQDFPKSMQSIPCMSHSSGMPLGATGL", "sequence of UniProt P17980 (whole entry, looked up)": "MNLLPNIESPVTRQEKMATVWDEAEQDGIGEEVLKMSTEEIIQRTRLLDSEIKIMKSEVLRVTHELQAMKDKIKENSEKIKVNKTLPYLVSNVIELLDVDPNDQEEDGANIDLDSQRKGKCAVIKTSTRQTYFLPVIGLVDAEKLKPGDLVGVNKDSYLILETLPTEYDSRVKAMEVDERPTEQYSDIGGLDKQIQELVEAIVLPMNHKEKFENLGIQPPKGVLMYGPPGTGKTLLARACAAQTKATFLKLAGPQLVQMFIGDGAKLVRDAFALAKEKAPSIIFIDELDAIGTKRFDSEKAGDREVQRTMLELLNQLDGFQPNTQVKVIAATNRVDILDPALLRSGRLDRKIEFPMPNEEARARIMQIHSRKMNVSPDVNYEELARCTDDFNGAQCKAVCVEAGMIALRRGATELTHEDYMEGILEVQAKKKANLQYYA", "sequence of UniProt Q9Y345 (whole entry, looked up)": "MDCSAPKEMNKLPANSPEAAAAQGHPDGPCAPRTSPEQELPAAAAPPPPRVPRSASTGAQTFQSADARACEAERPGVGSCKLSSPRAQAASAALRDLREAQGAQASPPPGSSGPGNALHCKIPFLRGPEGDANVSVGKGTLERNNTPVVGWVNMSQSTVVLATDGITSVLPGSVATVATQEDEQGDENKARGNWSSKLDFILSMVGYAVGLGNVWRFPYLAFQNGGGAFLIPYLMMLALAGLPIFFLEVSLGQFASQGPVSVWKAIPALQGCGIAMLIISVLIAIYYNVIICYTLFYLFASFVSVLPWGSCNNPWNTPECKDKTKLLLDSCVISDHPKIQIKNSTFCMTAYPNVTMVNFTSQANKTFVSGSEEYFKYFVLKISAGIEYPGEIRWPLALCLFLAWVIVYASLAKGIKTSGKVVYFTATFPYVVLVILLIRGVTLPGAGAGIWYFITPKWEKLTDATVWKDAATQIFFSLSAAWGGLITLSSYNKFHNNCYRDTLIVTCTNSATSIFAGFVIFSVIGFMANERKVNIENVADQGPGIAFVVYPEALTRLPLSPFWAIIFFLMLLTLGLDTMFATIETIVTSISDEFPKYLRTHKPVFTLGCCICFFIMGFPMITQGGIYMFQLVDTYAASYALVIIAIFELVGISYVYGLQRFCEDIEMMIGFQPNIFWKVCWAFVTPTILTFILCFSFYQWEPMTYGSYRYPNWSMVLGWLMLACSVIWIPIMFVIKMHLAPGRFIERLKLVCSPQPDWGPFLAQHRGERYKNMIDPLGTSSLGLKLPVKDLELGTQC", "sequence of UniProt Q53HV7 (whole entry, looked up)": "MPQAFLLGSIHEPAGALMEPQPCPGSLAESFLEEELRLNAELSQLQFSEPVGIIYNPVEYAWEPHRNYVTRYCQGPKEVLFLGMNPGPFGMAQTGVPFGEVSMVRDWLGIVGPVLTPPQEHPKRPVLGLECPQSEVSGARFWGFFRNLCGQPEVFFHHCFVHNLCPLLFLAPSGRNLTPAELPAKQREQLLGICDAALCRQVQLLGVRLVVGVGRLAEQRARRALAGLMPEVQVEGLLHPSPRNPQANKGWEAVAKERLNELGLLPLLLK"}
{"Compound": "C[Si](C)(C)C[C@H](CN)CC(=O)O", "tested on": "HTR2A (Homo sapiens, UniProt P28223)", "assay": "ligand displacement, radioligand", "conditions": "250 µM", "measurement": "inhibition", "value": "-6%"}
{"Compound": "Cc1cnc2nc1Nc1cccc(c1)COC/C=C/COCc1cc(ccc1OCCN1CCOCC1)N2", "tested on": "PIP5K1C (Homo sapiens, UniProt O60331)", "assay": "cell-free assay", "conditions": "0.1 µM", "measurement": "remaining signal", "value": "100%"}
{"Compound": "Cc1ccsc1C(=CCCSC1CCN(C)CC1C(=O)O)c1sccc1C (centres unmarked)", "tested on": "Sodium- and chloride-dependent glycine transporter 2", "assay": "MS binding competition", "conditions": "10 µM", "measurement": "remaining specific binding", "value": "110 ± 5.9%"}
{"Compound": "CC(=O)c1cnc(NS(=O)(=O)c2ccc(C(F)(F)F)c(Cl)c2)nc1", "tested on": "17-beta-hydroxysteroid dehydrogenase 13 (Homo sapiens, UniProt Q7Z5P4)", "assay": "enzyme activity", "system": "human hepatocytes, scramble siRNA, culture medium", "conditions": "24 h", "how to read": "reference: scramble siRNA control", "measurement": "oxidized product ratio", "value": "0.226 and 0.262 and 0.291 and 0.236"}
{"Compound": "CN(C)c1ccc(CNCCC2CCOC(C)(C)C2)cc1.Cl (centres unmarked)", "tested on": "Trypanosoma cruzi", "assay": "reporter mRNA translation, inhibitor, item: Renilla luciferase mRNA", "system": "cell-free extract", "conditions": "concentration not given, test 2", "how to read": "reference: positive over negative control", "measurement": "translation activity", "value": "86.6% and 102%"}
{"Compound": "C=CC(=O)N1CCCC(n2c(=O)c3ncccc3n(Cc3ccc(Oc4ccccc4)cc3)c2=O)C1 (centres unmarked)", "tested on": "26S proteasome regulatory subunit 6A (Homo sapiens, UniProt P17980)", "assay": "thermal proteome profiling, item: PSMC3", "conditions": "treated", "measurement": "melting temperature", "value": "46.8 °C and 40.4 °C"}
{"Compound": "O=C(O)Cc1cc2c(cc1C(=O)c1cccc(Br)c1)OCO2", "tested on": "Gria1/Gria2", "assay": "whole-cell patch clamp", "system": "HEK-293T", "conditions": "concentration not given, with: glutamate", "measurement": "deactivation time constant", "value": "6.5 ± 0.4 ms"}
{"Compound": "CCCCCC(O)/C=C/C=O (centres unmarked)", "tested on": "T-complex protein 1 subunit eta (Homo sapiens, UniProt Q99832)", "assay": "competitive isoTOP-ABPP, item: CCT7 cysteine peptide", "system": "Ramos soluble proteome", "conditions": "100 µM, with: iodoacetamide probe", "how to read": "reference: DMSO over compound-treated, higher = stronger cysteine blockade", "measurement": "isoTOP-ABPP competition ratio", "value": 1.6}
{"Compound": "N=C(N)NCCS(=O)(=O)O", "tested on": "SLC6A6 (Homo sapiens, UniProt P31641, G62A)", "assay": "binding, microscale thermophoresis", "conditions": "244 nM, room temperature, with: 50 nM labelled protein", "how to read": "higher = more binding", "measurement": "normalised MST signal", "value": 0.0107}
{"Compound": "CN(C)CCCSC(=S)N1CCN(C(=O)/C=C/c2coc3ccccc3c2=O)CC1", "tested on": "Nucleoprotein (N, Tomato spotted wilt virus, UniProt P25999)", "assay": "western blot", "conditions": "NG, 30 min, 25 °C, with: RNA", "how to read": "reference: 0 min", "measurement": "relative N protein level", "value": "0.729 and 0.46 and 0.806"}
{"Compound": "CC(C)(C(=O)N1CCC(Nc2nc3c(c(=O)[nH]2)CCCC3)CC1)c1ccc(Cl)cc1", "tested on": "MRGPRD (Homo sapiens, UniProt Q8TDS7)", "assay": "beta-arrestin recruitment, agonist, PRESTO-Tango", "measurement": "Hill slope", "value": 3.54}
{"Compound": "CC(C)[C@@H]1NC(=O)[C@H](Cc2ccccc2)NC(=O)CSC[C@@H](C(N)=O)NC(=O)[C@H](CCC(=O)O)NC(=O)[C@H](CO)NC(=O)[C@H](Cc2c[nH]c3cccc(Cl)c23)NC(=O)[C@H](C2CCCCC2)NC(=O)[C@H](C(C)C)NC(=O)[C@H](Cc2ccc(O)cc2)NC(=O)[C@H](CC(=O)O)NC(=O)[C@H](Cc2c[nH]c3ccccc23)NC(=O)[C@H](Cc2ccc(N)nc2)NC(=O)[C@H](Cc2c[nH]c3ccc(Cl)cc23)NC(=O)[C@H](CCC(=O)O)NC1=O", "tested on": "Interleukin-1 receptor-like 2 (IL1RL2, Homo sapiens, UniProt Q9HB29)", "assay": "reporter gene (SEAP), inhibitor, HEK-Blue IL-36R reporter", "system": "HEK-Blue IL-36R cells", "conditions": "0.005 µM, 6 h, with: IL-36β 30 ng/mL", "measurement": "remaining activity", "value": "92.9%"}
{"Compound": "CC1=CC(C)=[N+]2C1=C(CNCCO)c1c(C)cc(C)n1[B-]2(F)F", "tested on": "Sodium- and chloride-dependent glycine transporter 2", "assay": "MS binding competition", "conditions": "10 µM", "measurement": "remaining specific binding", "value": "91.4 ± 4.3%"}
{"Compound": "COC(=O)[C@@]1(C)C=C(C(=O)Nc2cccc(C(=O)Nc3ccc(Nc4nccc(-c5cccnc5)n4)c(C)c3)c2)C(=O)CC1", "tested on": "MAPK8 (Homo sapiens, UniProt P45983)", "assay": "enzyme activity, inhibitor", "conditions": "0.5487 µM, 18 h, unit not given, with: GSH 10 mM pre-incubation", "how to read": "reference: vehicle", "measurement": "remaining activity", "value": 0.103}
{"Compound": "O=C(O)Cc1cc2c(cc1C(=O)c1ccccc1)OCO2", "tested on": "Gria1/Gria2", "assay": "glutamate-evoked current, whole-cell patch clamp", "system": "HEK-293T", "conditions": "concentration not given, glutamate alone after washout, with: glutamate", "measurement": "current amplitude after recovery", "value": "619 ± 41 pA"}
{"Compound": "OC[C@@H]1[C@@H](O)[C@H](O)[C@@H](O)c2nccn21", "tested on": "bglA (Thermotoga maritima, UniProt Q08638)", "assay": "ITC", "conditions": "pH 6.8, 25 °C", "measurement": "ΔH", "value": "-12.6 ± 0.287 kcal/mol"}
{"Compound": "COc1cc2ncnc(Nc3ccc(Oc4ccccc4C)cc3)c2cc1OC", "tested on": "SMUG1 (Homo sapiens, UniProt Q53HV7)", "assay": "enzyme activity, activator, fluorescence", "conditions": "20 µM", "how to read": "reference: control", "measurement": "activity", "value": "500 ± 100%"}
{"Compound": "CCOC(=O)c1ccc2c(c1)C1CC(C)(N2)c2c(C)nc3ccc(C(=O)OCC)cc3c21 (single isomer, unassigned)", "tested on": "Glideosome-associated protein 50 (GAP50, Plasmodium falciparum, UniProt Q8I2X3)", "assay": "differential scanning fluorimetry", "measurement": "ΔTm", "value": "-6 °C"}
{"Compound": "O=C(NC[C@@H](Cc1ccc(F)cc1)N1CCC(O)(C(F)(F)F)CC1)C1(c2ccc(Cl)cc2)CCCC1", "tested on": "TRPA1 (Homo sapiens, UniProt O75762, V875A)", "assay": "calcium influx, agonist", "how to read": "reference: V875A mutant over wild type", "measurement": "EC50 fold change", "value": 2.1}
{"Compound": "CC[C@H](C)[C@@H]1NC(=O)[C@H](C(C)C)NC(=O)[C@H](C(C)C)NC(=O)[C@H](CC(C)C)NC(=O)C[C@@H](C(=O)N[C@@H](Cc2c[nH]c3ccccc23)C(=O)N[C@@H](CC(N)=O)C(=O)N[C@@H](C)C(=O)N2CCC[C@H]2C(=O)NCC(=O)N[C@@H](Cc2c[nH]c3ccccc23)C(=O)N[C@@H](Cc2ccc(O)cc2)C(=O)O)NC(=O)[C@H](C)NC(=O)[C@H](CCC(N)=O)NC(=O)[C@H](C(C)C)NC1=O", "tested on": "TLR4 (Homo sapiens, UniProt O00206)", "assay": "antagonist, ELISA", "conditions": "1 µg/mL, with: LPS", "how to read": "reference: DMSO control, lower means stronger antagonism", "measurement": "OD450 in LPS binding ELISA", "value": "0.411 a.u. and 0.405 a.u. and 0.423 a.u. and 0.417 a.u."}
{"Compound": "C#CCOC(=O)[C@@]1(C)C=C(C(=O)OC(C)(C)C)C(=O)CC1", "tested on": "MAPK1 (Homo sapiens, UniProt P28482)", "assay": "enzyme activity, D-SENSOR", "conditions": "0.06097 µM, mean of replicates", "measurement": "normalized kinase activity", "value": 1.15}
{"Compound": "NC(=NO)NCCC[C@H](N)C(=O)O", "tested on": "Arginase (Schistosoma mansoni, UniProt Q6WVP6)", "assay": "isothermal titration calorimetry", "measurement": "ΔH first site", "value": "-8.6 ± 0.3 kcal/mol"}
{"Compound": "Cc1cc(-c2ccccc2)cc(C(=O)NNS(=O)(=O)c2ccccc2)c1F", "tested on": "KAT5 (Homo sapiens, UniProt Q92993)", "assay": "SPR", "conditions": "50 µM", "how to read": "higher = more binding", "measurement": "SPR binding response", "value": "0.913 RU"}
{"Compound": "O=C(O)Cc1cc2c(cc1C(=O)c1cccc(I)c1)OCO2", "tested on": "Gria1/Gria2", "assay": "whole-cell patch clamp", "system": "HEK-293T", "conditions": "concentration not given, with: glutamate", "measurement": "desensitization time constant", "value": "4 ± 0.3 ms"}
{"Compound": "COC(=O)c1c(NC(=O)Cn2cnc([N+](=O)[O-])n2)sc2c1CCC(C)C2 (centres unmarked)", "tested on": "Trypanosoma cruzi", "assay": "reporter mRNA translation, inhibitor, item: Renilla luciferase mRNA", "system": "cell-free extract", "conditions": "concentration not given, test 2", "how to read": "reference: positive over negative control", "measurement": "translation activity", "value": "139% and 87.1%"}
{"Compound": "O=C1c2sc(-c3ccc(N4CCC(CO)CC4)nc3F)nc2CCN1c1cccnc1", "tested on": "TAR DNA-binding protein 43, aggregated (TARDBP, Homo sapiens, UniProt Q13148)", "assay": "radioligand binding", "system": "control brain sarkosyl-insoluble extract", "conditions": "18.97 nM", "measurement": "specific binding", "value": "0.067 nM"}
{"Compound": "CCCCCCCCCCCCC/C=C/C=O", "tested on": "PHGDH (Homo sapiens, UniProt O43175)", "assay": "competitive isoTOP-ABPP", "system": "Ramos soluble proteome", "conditions": "100 µM, 60 min, with: iodoacetamide probe", "how to read": "reference: DMSO over compound-treated, higher = stronger cysteine blockade", "measurement": "isoTOP-ABPP competition ratio", "value": 1}
{"Compound": "CC(C)Oc1cc(Cl)ccc1CNc1cc(-c2ccccc2)nc2ncnn12", "tested on": "GPR3 (Homo sapiens, UniProt P46089)", "assay": "cAMP reporter", "system": "human cells", "conditions": "1 nM", "how to read": "higher is more cAMP", "measurement": "cAMP luminescence", "value": "32000 a.u. and 54500 a.u. and 47000 a.u. and 29300 a.u. and 40700 a.u."}
{"Compound": "COc1ccc(CN2CC3CCCCN3C2=O)cc1 (centres unmarked)", "tested on": "Uridine nucleoside ribohydrolase (Trichomonas vaginalis, UniProt A2FTT0)", "assay": "19F NMR", "conditions": "50 µM", "measurement": "inhibition", "value": "55.7%"}
{"note": "A few entries again:"}
{"Compound": "C[Si](C)(C)C[C@H](CN)CC(=O)O", "tested on": "HTR2A (Homo sapiens, UniProt P28223)", "assay": "ligand displacement, radioligand", "conditions": "250 µM", "measurement": "inhibition", "value": "-6%"}
{"Compound": "COC(=O)[C@@]1(C)C=C(C(=O)Nc2cccc(C(=O)Nc3ccc(Nc4nccc(-c5cccnc5)n4)c(C)c3)c2)C(=O)CC1", "tested on": "MAPK8 (Homo sapiens, UniProt P45983)", "assay": "enzyme activity, inhibitor", "conditions": "0.5487 µM, 18 h, unit not given, with: GSH 10 mM pre-incubation", "how to read": "reference: vehicle", "measurement": "remaining activity", "value": 0.103}
{"Compound": "C#CCOC(=O)[C@@]1(C)C=C(C(=O)OC(C)(C)C)C(=O)CC1", "tested on": "MAPK1 (Homo sapiens, UniProt P28482)", "assay": "enzyme activity, D-SENSOR", "conditions": "0.06097 µM, mean of replicates", "measurement": "normalized kinase activity", "value": 1.15}
